# Published values collected from several papers.
# Every numbered part comes from another study and shows a few of its results, in no order.

# Study 1
# Target: PABPC1L2, full length, GST fusion (mouse, UniProt A0ABA7IW68)
# Technique: RNAcompete
# Form: RNA
# Matrix: in vitro
# Concentration: 20 nM
# Notes: 7-mer, probes averaged, single round
# Relative to: mean of 7-mers
# Direction: higher = stronger binding
# Residues (chain): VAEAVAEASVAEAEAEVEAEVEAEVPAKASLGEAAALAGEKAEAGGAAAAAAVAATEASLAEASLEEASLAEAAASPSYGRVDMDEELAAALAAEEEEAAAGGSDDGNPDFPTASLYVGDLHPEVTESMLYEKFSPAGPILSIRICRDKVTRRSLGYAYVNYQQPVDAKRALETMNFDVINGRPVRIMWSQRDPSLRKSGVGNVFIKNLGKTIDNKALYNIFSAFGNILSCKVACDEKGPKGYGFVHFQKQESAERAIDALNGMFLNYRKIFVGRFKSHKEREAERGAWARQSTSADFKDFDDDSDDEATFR
Oligonucleotide,7-mer Z-score
AAGCCGU,-0.0518
UCGUAGG,-0.229
GUUGUAA,-0.0373
AUUAACG,-0.0156
CAUGGCU,-0.213
UUCGUAG,-0.382
AGAGCCG,-0.402
GGCAAGA,0.564

# Study 2
# Target: Transcription factor SOX-2, HMG box (SOX2, Homo sapiens, UniProt P48431, residues 37-118)
# UniProt P48431, sequence (37-118, looked up): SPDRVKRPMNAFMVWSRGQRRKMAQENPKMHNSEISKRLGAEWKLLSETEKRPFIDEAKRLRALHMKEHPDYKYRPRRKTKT
# Technique: protein-binding microarray
# Form: hairpin DNA
# Matrix: in vitro
# Concentration: not given
# Notes: whole hairpin DNA, median over replicate spots
# Relative to: not given
# Direction: higher = stronger binding
# Shared flanks, not repeated: GCAGGCC … GGCCTGCACACTCTTTCCCTACACGAC
Oligonucleotide,median fluorescence
CACCATGGGCCTCCTGGCCCATGGTG,2460 a.u.
AACAATGGGCCTCCTGGCCCATTGTT,5350 a.u.
CACAATGGGCCTCCTGGCCCATTGTG (5mC at 8),3530 a.u.
CACAATCCGCCTCCTGGCGGATTGTG (5mC at 14),2790 a.u.
CCGAATGGGCCTCCTGGCCCATTCGG (5mC at 9 31),2490 a.u.
CACAATGGGCCTCCTGGCCCATTGTG (5mC at 26),3490 a.u.
CACGATGGGCCTCCTGGCCCATCGTG,2350 a.u.
CACAAGGGGCCTCCTGGCCCCTTGTG (5mC at 28),2460 a.u.

# Other studies, line by line
Molecule,target,observed,technique,form,concentration,quantity,result
COc1nc2ccc([C@@](O)(c3ccccc3)C3CCN(C(C)=O)CC3)cc2c(Cl)c1Cc1ccc(-n2cccn2)cc1,"SLC6A4 (Homo sapiens, UniProt P31645)",binding,radioligand binding,,10 µM,inhibition,5.62%
IFLKPDETF,"HLA class I histocompatibility antigen, A alpha chain, allele A*80:01 (Homo sapiens, UniProt P04439)",peptide-MHC binding,,peptide,concentration not given,binding,inactive

# For quick reference, copied from above (study 2):
Oligonucleotide,median fluorescence
CACAATGGGCCTCCTGGCCCATTGTG (5mC at 8),3530 a.u.
CACAATCCGCCTCCTGGCGGATTGTG (5mC at 14),2790 a.u.
